Measured values collected from several papers.
A part holds a random share of what one study measured.

Series 1
Target: Ras GTPase-activating protein-binding protein 1, C-terminal RGG region (G3BP1, Homo sapiens, UniProt Q13283)
Sequence of UniProt Q13283 (whole entry, looked up): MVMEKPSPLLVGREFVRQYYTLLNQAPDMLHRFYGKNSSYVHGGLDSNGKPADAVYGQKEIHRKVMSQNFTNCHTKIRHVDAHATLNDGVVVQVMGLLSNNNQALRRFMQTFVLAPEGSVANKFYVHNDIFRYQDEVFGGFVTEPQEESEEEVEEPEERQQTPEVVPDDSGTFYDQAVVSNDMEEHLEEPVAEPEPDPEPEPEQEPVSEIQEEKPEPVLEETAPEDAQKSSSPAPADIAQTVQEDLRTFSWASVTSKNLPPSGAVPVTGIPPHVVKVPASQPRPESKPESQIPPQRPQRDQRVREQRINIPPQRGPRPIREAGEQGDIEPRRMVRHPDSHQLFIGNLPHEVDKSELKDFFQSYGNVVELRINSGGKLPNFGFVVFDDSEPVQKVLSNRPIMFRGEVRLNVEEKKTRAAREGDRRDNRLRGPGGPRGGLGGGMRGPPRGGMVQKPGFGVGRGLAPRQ
Method: RNA Bind-n-Seq
Molecule type: RNA
Sample: in vitro
Tested at: 1 µM
Setting: whole 134-nt RNA, ends assumed
Together with: 150 mM KCl
Reference: input library
Direction: higher = stronger binding
Measurement: log2 enrichment
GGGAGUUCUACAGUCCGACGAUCUGGGAGGUGGAUUUUGUUUAUUUUUUUAGCUCAUUUCCAGGGGUGGGAAUUUUUUUUUAAUAUGUGUCAUGAAUAAAGUUGUUUUUGAAGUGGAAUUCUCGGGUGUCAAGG: 3.73
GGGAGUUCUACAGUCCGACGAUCUGGCCCUGGUGGCAUGCGGGGAGGAAGAGGUGGCCUCAUGGAUCGUGGUGGUCCCUGUGGAAUGUUCAGAGGUGGCCGUGGUGGAGACAGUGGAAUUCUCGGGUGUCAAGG: 1.85
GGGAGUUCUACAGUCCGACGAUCUGCUGGAGUGGCAGAAGACUUUUGAGGAGAAGCUCACGCCGUUGCUGAGUGUGCGGGAGUCACUCUCAGAGGAAGAGGCCCAGAAGAUGGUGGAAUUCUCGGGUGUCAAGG: -1.53
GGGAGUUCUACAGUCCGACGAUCUCAAGUCCUGUGCUACACAUCGUAUGUACCGAAUCGGGGAAGGGAAGGGGAAGGAAAGUAUUAUGUUACGCCGUUCGGAUCUGCACUUCCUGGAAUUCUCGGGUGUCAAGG: -0.546
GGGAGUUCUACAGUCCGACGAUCGCAGGAAGUAAAAACAAAUGGAAAUGCUUCGGAUAGUGGCAGGGGUGGGGGUUGCUAAGGAAAUGGUGGGAUGGGAGUGGGUAAAGAGUUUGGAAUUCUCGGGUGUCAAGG: 2.03
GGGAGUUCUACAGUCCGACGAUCUCAAGUCCUGUGCUACACAUCGUAUGUACCGAAUCGGUGGUUUGGAAAAAAAGGAAAGUAUUAUGUUACGCCGUUCGGAUCUGCACUUCCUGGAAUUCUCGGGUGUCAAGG: -1.26
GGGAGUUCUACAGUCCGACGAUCGCAGGAAGUAAAAACAAAUGGAAAUCCUUCGGAUAGUGGCAGGGGUGGGGGUUGCUAAGGAAAGGGUGGGAUGGGAGUGGGUAAAGAGUUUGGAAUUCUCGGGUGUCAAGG: 1.53
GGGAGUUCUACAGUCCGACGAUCAGUCCUGUGCUACACAUCGUAUGUACCGAAUCGGGGCCCCGGGGCCCCGGGCCCCGGAAAGUAUUAUGUUACGCCGUUCGGAUCUGCACUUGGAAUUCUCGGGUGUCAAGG: 0.475
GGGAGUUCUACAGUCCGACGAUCUGCAGCAGCGCCAGGAAUCGAGGAUGGUAAAAUGACCCAGGGGAAGAAGAAGAAACGGGCCGCGAACCGCAGUAUCAUGCUGGCCAAGAAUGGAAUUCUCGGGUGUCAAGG: -0.796
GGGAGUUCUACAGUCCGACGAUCGCAGGAAGUAAAAACAAAUGGAAAUGCUUCGGAUAGUGGCAGGGGUGGGGGUUGCUAAGGAAAGGGUGGGAUGGGAGAGGGUAAAGAGUUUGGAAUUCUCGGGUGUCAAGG: 1.18
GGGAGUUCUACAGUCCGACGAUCAGUCCUGUGCUACACAUCGUAUGUACCGAAUCGGGUGGGAAAAAAAGGGAAAAAGGGAAAGUAUUAUGUUACGCCGUUCGGAUCUGCACUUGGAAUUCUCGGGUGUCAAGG: 0.09
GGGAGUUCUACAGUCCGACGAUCUGGGAGGUAGAUUUUGUUUAUUUUUUUAGCUCAUUUCCAGGGGUGGGAAUUUUUUUUUAAUAUGUGUCAUGAAUAAAGUUGUUUUUGAAAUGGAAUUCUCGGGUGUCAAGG: 3.27

Series 2
Target: Sal-like protein 4, full length isoform A (SALL4, Homo sapiens, UniProt Q9UJQ4, residues 1-1053)
Sequence of UniProt Q9UJQ4 (whole entry, looked up): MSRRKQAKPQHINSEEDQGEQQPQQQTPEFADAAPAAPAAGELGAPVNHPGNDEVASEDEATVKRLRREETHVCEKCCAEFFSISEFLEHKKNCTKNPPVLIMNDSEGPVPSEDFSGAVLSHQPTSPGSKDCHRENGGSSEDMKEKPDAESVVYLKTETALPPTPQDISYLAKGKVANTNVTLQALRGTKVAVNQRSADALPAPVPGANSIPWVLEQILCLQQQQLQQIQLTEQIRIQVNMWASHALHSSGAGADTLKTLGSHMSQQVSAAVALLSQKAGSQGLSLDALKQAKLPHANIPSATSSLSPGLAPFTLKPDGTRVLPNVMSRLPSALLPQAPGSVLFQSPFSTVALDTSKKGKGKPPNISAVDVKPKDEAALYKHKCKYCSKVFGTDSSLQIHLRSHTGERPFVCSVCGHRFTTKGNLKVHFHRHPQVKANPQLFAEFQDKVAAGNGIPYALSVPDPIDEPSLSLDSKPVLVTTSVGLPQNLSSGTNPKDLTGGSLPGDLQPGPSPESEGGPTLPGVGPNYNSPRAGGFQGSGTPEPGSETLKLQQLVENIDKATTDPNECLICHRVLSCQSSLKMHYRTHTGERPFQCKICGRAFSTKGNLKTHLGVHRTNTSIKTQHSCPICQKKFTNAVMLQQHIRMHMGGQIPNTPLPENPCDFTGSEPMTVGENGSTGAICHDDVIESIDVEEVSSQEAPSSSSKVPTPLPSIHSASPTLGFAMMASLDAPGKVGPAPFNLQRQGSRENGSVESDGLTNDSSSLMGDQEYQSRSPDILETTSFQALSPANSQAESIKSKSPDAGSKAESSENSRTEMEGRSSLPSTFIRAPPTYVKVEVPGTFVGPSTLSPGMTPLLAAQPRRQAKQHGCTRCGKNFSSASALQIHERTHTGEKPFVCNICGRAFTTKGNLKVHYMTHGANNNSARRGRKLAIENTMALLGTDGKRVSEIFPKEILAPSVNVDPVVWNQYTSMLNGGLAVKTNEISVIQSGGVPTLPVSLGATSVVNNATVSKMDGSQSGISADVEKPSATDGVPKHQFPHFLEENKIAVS
Method: universal PBM
Molecule type: double-stranded DNA, one strand shown
Sample: in vitro
Tested at: 600 nM
Setting: 8-mer, flanks averaged, mean of replicates
Direction: higher = stronger binding
Measurement: E-score
CGGCGAGC: -0.339
AGCCACCC: -0.259
ATTTGATG: 0.221
AGGCTGAG: -0.203
TCCTTTCA: 0.108
CCGAGCAC: -0.196
TCGACGAA: 0.00341
TCAGATGA: 0.147
GAATTTCC: 0.0932
TGGGGACA: -0.127
CAGGGATG: -0.0943
AAGGAAGG: -0.00134
GATGACGC: -0.151
TCAGGAGA: 0.131
CAATAAGA: 0.255
ATTTACAC: 0.173
AACCGTCA: -0.151
AAACCCCA: -0.0415

Series 3
Target: RING finger protein unkempt homolog, zinc fingers 1-6, GST-SBP tag (UNK, Homo sapiens, UniProt Q9C0B0, residues 30-357)
Sequence of UniProt Q9C0B0 (30-357, looked up): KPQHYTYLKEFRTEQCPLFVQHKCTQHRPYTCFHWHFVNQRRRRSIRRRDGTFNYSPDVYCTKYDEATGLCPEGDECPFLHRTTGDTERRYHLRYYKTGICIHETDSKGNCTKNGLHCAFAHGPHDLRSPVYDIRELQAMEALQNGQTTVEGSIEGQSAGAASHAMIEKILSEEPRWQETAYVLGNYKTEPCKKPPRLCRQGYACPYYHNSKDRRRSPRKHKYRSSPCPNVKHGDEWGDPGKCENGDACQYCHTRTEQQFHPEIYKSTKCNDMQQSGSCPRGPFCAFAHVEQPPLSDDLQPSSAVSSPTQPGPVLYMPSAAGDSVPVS
Method: RNA Bind-n-Seq
Molecule type: RNA
Sample: in vitro
Tested at: not given
Setting: RNA with constant flanks, human and mouse sites, ends assumed
Reference: input RNA pool
Direction: higher = stronger binding
Measurement: bound/input enrichment
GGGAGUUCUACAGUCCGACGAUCAAGAUUGAAGGAUUUGAGGUACUGAAGAAAGUGAAGACUCUCUGCCUCCGCCAAAAUUUAAUUAAAUGCAUUGAGAAUCUGGAGGAGCUACAGAGUCUUCGAGAGCUGGAUCUUUACGACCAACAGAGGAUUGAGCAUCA: 0.123 ratio
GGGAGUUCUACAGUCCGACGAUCGCAAAUCUCUAAGUUUUUUGGUUUUUUUUUAUUUUUAAUUUUUAUUUUUGCUUGGGCUUGCUUAGUUUGGGAGGGGAUGGUGCUCCGAGAUCUCUGGAAACAGGAGGCCCCUGUCAGCCACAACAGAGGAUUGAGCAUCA: 17.9 ratio
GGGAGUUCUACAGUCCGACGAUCCUGUCUGAUAUCAUGGUCUCGCUGGCAAAUGCUUCAACCUUACAGAAUGAUUCCAGUUGGAUAGAAACAAUAAGGAAGUUUGUGACGGAGACCCUUAAAGGUGGCACUAGAUUGAACAGUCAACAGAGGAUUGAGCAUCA: 0.314 ratio
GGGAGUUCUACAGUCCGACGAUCGAGGAAAAGGCCAAACAAGACCCAUCUUAUUAUUUGAAAAACACAAAUUCGGAGACGAGAGAGACGCUACAGGAGCUCUACAAAGAGUUCAAAGGAGAUGAGAUUUUAGCAGCUACCAUGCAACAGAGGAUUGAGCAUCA: 0.414 ratio
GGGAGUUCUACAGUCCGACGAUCAUAUCCAGUGGCCUAGAAUUUGUAUCCCACAACCCACCCAGUGAAGCAGCUACUCCUCCAGUAGCAAGGACCAGUCCCUCGGGGGGAACGUGGUCAUCAGUGGUCAGUGGGGUUCCAAGACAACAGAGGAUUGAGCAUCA: 0.116 ratio
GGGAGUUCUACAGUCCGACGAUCAAAUAUGGUCCCAUUGCCGAUGUGUCUAUUGUAUAUGACCAGCAGUCUAGGCGUUCAAGAGGAUUUGCCUUUGUAUAUUUUGAAAAUGUAGAUGAUGCCAAGGAAGCUAAAGAACGUGCCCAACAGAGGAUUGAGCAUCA: 0.38 ratio
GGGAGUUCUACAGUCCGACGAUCACAGACAUUCGCUGCCCCUUUGAAAAACGAAGAGAUGCAGCAUGUGUGUUUUGGGACAAUGUAGUAUACAUUUUGGGAGGUUCUCAGCUUUUCCCCAUAAAGCGAAUGGAUUGCUACAAUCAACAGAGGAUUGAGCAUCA: 0.159 ratio
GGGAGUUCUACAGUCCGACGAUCGGGAAAAACAGCCUCUCCGUACUUUCACCAAAAAUUGGAAAUCUACUAUUUCUUUCCUACUUAGACAUCAAAGGCAAUCACUUUGAAGUCCUCCCUCCCGAGCUGGGAGACUGCCGGGCUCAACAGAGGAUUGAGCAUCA: 0.397 ratio
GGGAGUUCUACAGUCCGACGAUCGCCCGCGGCCACUUUUGCCUUCCCGGGGAGAUGUCCUUUGCUUCUCAGAUGUAAAUGCACUUUAAGUUUGUUAUUCAACAGUGAAAAUGAGUCAUACAGAGGUUAAAUUAAAAAUACCUUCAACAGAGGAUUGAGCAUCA: 0.101 ratio
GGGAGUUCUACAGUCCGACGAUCAAAUUUAAAAAUUCUUUCUGUUGUACAGAAUUAAAUGAGGAAAACAAACAAUCUCAUUCGUUUAGUUUGCAGACUCCUUGUUCAAAAGGUAGUGAAUUAAGAACAAUUAAUAAGAUUUCUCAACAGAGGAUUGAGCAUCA: 3.44 ratio
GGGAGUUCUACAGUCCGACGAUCGGUGGAGAUGGAGAUGAUAUGGAAAUGUUCAUGGAGGAGAUGAGAGAGAUCCGGAGAAAGCUUAGGGAGCUACAGCUGAGAAAUUGUCUACGCAUCCUUAUGGGGGAGCUGUCUAACCACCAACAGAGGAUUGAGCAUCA: 0.326 ratio

Series 4
Target: Histone acetyltransferase KAT6A, winged helix 2, GST fusion (KAT6A, Homo sapiens, UniProt Q92794, residues 85-181)
Method: protein binding microarray
Molecule type: double-stranded DNA, one strand shown
Sample: in vitro
Tested at: not given
Setting: 8-mer, flanks averaged, mean of 2 arrays, mostly near background
Reference: not given
Direction: higher = stronger binding
Measurement: E-score
Target sequence (chain): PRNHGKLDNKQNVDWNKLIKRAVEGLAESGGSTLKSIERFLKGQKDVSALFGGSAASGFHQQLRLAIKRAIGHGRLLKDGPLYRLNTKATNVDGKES
GCGCGACA: 0.0884
AGTAGGTC: -0.113
AGCAGCCC: 0.143
GAGGATGA: -0.0734
CACCTCGA: 0.0343
TAGAAATA: 0.0244
TAGAGGAA: -0.0577
AGTTTAAA: 0.166
AGTGAGGG: 0.0817
TGAGATCA: 0.135
CGTCCAGA: 0.0325
AGCTGAAG: -0.0843
CCATCAGA: -0.117
ATGCACAG: -0.042
ACAGTTAG: -0.17
ATTGCCGG: 0.081

Series 5
Target: Interferon regulatory factor 5, full length, phosphomimetic (IRF5, Homo sapiens, UniProt Q13568-2, residues 1-514, K96S/S451D/S453D/S456D/S462D)
Method: protein-binding microarray
Molecule type: double-stranded DNA, one strand shown
Sample: in vitro
Tested at: 250 nM
Setting: 60-bp whole probe
Together with: salmon DNA 0.4 mg/ml
Reference: random background probes
Direction: higher = stronger binding
Measurement: log fluorescence
Constant ends, left off below: GCCTAGCAC … GTCTTGATTCGCTTGACGCTGCTG
TTAGGTCTCCTTCTGCTTTAGTGCTAG: -0.406 z-score
GACGATATCAATATCGAGACGTGCTAG: 2.27 z-score
GACGATTTCAGTTTCGCGACGTGCTAG: 3.08 z-score
TCCATTTTGGTTTTCATTATGTGCTAG: 2.28 z-score
GACGATATCAGTATCGGGACGTGCTAG: 3.06 z-score
GACTATTTCAGTTCCGAGACGTGCTAG: 1.39 z-score
TTAGATCGCAGACTGGATTAGTGCTAG: -0.297 z-score
TCAAGATTTTTTTTCCTACTGTGCTAG: 0.718 z-score
TCAACACTCTTCTTTTGCACTGTGCTA: 0.692 z-score
TCATCTCTAGAAATTCCCACTGTGCTA: 0.377 z-score
